# Experimental data of several laboratories.
# Each numbered part is a random draw from the data of one study; scales do not carry over between parts. Values joined by “and” are separate records of one study, mostly repeats; a detail may differ.
# Chain of UniProt P52564 (whole entry, looked up): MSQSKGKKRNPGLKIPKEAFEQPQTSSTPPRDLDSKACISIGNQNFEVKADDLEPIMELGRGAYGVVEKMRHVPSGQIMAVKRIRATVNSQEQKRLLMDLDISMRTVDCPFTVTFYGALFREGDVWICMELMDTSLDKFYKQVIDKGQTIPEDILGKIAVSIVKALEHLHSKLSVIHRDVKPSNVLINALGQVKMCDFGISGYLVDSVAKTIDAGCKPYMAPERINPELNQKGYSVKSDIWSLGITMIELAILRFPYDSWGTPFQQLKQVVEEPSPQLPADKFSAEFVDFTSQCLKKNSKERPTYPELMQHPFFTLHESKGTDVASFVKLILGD
# Chain of UniProt P42680 (whole entry, looked up): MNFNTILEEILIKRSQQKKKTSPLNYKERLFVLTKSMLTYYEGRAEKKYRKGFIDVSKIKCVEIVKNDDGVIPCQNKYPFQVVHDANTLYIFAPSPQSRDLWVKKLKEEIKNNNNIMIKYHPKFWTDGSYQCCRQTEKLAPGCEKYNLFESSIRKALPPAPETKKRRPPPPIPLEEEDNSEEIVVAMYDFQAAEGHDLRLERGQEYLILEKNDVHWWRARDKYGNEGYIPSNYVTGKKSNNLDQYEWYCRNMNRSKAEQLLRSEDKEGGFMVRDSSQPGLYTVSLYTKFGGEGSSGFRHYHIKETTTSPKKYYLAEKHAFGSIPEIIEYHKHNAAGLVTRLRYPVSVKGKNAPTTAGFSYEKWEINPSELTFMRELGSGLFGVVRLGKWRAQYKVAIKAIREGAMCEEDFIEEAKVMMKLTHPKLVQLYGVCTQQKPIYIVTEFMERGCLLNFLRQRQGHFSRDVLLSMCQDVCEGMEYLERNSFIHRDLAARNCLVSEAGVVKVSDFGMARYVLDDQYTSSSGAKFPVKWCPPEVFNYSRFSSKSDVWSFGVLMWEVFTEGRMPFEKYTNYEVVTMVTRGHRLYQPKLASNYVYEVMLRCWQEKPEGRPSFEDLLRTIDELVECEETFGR
# Chain of UniProt P20794 (whole entry, looked up): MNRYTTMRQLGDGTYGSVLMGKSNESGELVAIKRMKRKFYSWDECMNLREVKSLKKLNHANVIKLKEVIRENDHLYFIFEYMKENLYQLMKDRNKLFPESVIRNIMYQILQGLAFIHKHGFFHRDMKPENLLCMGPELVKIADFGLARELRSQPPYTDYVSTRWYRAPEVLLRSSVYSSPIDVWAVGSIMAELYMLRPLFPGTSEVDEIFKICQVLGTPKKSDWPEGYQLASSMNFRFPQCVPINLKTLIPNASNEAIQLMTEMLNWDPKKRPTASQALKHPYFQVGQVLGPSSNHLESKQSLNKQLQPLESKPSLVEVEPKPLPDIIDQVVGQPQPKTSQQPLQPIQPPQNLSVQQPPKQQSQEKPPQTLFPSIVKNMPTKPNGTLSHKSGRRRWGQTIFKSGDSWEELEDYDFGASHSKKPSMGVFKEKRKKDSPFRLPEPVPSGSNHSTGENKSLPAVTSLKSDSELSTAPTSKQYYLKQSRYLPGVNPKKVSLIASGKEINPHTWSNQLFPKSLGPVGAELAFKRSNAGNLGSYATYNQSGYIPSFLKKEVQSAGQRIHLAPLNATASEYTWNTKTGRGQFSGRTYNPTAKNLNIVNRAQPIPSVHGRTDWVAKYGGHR
# Chain of UniProt Q9H093 (whole entry, looked up): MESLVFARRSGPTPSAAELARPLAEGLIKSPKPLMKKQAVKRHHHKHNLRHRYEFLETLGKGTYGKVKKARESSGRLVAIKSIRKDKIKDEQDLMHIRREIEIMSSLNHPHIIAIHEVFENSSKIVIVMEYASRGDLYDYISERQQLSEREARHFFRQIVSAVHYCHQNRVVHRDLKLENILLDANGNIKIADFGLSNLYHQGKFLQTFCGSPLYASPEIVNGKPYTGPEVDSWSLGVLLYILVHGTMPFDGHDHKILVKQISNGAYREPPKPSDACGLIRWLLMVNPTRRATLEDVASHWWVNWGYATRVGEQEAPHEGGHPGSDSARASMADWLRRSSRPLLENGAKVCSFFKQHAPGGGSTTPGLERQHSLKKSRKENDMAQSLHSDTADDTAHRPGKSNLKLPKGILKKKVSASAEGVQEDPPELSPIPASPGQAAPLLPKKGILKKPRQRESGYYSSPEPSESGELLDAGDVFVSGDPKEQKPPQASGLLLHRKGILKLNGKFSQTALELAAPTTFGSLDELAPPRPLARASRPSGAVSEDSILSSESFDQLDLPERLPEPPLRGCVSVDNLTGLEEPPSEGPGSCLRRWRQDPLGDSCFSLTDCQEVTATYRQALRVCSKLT
# Chain of UniProt O60331 (whole entry, looked up): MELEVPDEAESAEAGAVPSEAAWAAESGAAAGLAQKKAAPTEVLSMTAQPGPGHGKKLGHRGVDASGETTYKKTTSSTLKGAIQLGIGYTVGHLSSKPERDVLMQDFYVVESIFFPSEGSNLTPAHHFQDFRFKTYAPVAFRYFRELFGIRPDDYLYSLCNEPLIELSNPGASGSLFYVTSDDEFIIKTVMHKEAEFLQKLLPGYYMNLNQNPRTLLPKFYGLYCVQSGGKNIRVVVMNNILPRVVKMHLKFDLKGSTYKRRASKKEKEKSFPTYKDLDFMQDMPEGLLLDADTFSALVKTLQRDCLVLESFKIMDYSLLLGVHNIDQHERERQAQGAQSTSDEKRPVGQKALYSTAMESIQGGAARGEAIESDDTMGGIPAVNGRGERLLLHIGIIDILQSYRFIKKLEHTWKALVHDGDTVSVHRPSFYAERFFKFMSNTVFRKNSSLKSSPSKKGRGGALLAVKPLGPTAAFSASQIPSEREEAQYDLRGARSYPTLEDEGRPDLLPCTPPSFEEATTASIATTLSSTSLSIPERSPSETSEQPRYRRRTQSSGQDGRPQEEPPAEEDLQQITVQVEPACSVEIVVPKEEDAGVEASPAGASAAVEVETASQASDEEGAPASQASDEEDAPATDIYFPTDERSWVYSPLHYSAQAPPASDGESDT
# Chain of UniProt P49841 (whole entry, looked up): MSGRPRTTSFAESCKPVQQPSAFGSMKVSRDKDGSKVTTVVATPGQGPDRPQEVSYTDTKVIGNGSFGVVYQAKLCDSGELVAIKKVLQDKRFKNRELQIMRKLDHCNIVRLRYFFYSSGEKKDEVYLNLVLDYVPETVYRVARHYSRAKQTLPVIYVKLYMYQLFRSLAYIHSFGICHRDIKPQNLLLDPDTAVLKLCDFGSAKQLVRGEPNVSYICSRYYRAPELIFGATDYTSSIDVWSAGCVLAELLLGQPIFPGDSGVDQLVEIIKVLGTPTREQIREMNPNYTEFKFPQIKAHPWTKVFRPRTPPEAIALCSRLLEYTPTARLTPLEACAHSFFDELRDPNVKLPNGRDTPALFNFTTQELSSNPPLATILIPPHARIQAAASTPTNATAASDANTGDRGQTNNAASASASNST
# Chain of UniProt P07332 (whole entry, looked up): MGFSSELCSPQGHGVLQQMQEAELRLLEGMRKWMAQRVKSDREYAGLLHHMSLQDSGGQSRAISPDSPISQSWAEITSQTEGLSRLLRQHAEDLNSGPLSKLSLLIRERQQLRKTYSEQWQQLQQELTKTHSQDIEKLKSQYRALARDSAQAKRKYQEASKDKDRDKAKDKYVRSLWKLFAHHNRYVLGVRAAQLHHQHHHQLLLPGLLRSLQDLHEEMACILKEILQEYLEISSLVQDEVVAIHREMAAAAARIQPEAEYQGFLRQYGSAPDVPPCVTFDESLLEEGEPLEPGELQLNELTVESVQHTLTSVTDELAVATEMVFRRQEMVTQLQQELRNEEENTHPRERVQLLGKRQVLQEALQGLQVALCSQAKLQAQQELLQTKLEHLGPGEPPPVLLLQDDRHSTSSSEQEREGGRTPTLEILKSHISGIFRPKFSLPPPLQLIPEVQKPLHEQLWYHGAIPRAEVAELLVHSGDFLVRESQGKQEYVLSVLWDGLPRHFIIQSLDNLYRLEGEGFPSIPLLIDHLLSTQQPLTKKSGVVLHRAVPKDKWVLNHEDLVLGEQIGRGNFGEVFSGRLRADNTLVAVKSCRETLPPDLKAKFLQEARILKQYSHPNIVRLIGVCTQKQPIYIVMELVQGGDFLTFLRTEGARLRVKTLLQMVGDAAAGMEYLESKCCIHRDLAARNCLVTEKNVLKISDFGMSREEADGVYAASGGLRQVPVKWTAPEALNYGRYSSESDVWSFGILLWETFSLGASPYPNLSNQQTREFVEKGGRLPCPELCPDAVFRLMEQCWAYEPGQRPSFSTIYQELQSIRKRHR
# Chain of UniProt Q9P1W9 (whole entry, looked up): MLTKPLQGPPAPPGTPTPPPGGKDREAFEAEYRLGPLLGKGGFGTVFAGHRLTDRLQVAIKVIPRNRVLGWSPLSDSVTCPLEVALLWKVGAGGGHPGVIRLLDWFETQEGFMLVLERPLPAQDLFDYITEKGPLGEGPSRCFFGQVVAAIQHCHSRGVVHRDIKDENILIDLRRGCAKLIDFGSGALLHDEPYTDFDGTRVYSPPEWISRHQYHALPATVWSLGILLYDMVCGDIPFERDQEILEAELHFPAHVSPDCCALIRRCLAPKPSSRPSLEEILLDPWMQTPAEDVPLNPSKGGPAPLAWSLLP

# Sample 1
# Organism: Plasmodium berghei
# Action: inhibitor
# Cell line: Huh-7
# Strain: liver stage
# Concentration: 10 µM
# Time: 24 h
# Baseline: untreated control
SMILES,infection rate
O=C(O)CCC(=O)c1ccc(-c2ccccc2)cc1,112%
NC(=O)NO,116%
CC1CCc2cc(F)cc3c(=O)c(C(=O)O)cn1c23 (stereo not drawn),110%

# Sample 2
# Compound: Cc1ccc(NC(=O)c2ccnc(C(F)(F)F)c2)cc1-c1cc(OCCO)nc(N2CCOCC2)c1
# Method: competitive binding panel
# Concentration: 1 µM
# Baseline: vehicle
target,remaining binding [%]
"Phosphatidylinositol 4,5-bisphosphate 3-kinase catalytic subunit delta isoform (PIK3CD, Homo sapiens, UniProt O00329)",100
"Serine/threonine-protein kinase MAK (MAK, Homo sapiens, UniProt P20794)",90
"Maternal embryonic leucine zipper kinase (MELK, Homo sapiens, UniProt Q14680)",65

# Sample 3
# Cell line: mouse MPNST tumor cells
# Method: high-content nuclear imaging
# Refers to: cell number
# Concentration: 10 µM
# Time: 12 h
# Notes: mean of 2 replicates
# Baseline: plate mean
# Reading: higher = more cells
Structure (SMILES),nuclei count
CNCCCC1(c2ccccc2)OC(C)(C)c2ccccc21 (stereo not drawn),3.72 z-score
CC1CNc2c(cccc2S(=O)(=O)N[C@@H](CCCNC(=N)N)C(=O)N2CC[C@@H](C)C[C@@H]2C(=O)O)C1 (stereo partly drawn),0.858 z-score and 0.982 z-score and 0.724 z-score
CC(=O)N[C@@H](CS)C(=O)O,0.536 z-score

# Sample 4
# Target: Calcium/calmodulin-dependent protein kinase type II subunit alpha (CAMK2A, Homo sapiens, UniProt Q9UQM7)
# Chain of UniProt Q9UQM7 (whole entry, looked up): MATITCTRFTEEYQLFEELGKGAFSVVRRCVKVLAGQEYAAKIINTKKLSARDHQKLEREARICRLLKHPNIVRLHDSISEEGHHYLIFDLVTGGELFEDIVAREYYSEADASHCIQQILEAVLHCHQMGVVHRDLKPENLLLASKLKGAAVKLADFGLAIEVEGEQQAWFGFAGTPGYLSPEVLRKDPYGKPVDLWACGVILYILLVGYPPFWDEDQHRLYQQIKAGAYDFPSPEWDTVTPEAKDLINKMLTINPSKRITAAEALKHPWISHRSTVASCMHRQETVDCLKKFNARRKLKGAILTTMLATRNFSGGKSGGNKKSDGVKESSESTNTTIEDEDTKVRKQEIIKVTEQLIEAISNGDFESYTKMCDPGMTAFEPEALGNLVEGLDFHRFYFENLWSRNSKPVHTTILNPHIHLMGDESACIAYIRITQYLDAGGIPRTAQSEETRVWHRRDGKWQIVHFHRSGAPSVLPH
# Observed: enzyme activity
# Action: inhibitor
# Concentration: 10 µM
Structure (SMILES),inhibition [%]
CCCCCCCC/C=C\CCCCCCCC(=O)NCC(=O)O,-48
Cc1cncc(C)n1,-11
C[C@@]12C[C@@]3(O)O[C@@H](O1)[C@]1(COC(=O)c4ccc(O)cc4)[C@H]3C[C@@]12O[C@@H]1O[C@H](COC(=O)c2ccccc2)[C@@H](O)[C@H](O)[C@H]1O,-23

# Sample 5
# Cell line: HaCaT
# Concentration: 100 µM
# Time: 18 h
SMILES,viability [%]
CC(C)C[C@H](NC(=O)CNC(=O)c1cc(Cl)ccc1Cl)B(O)O,20.5
CCCN(CCC)C(=O)C(CCC(=O)O)NC(=O)c1ccccc1 (stereo not drawn),97.3
CCC(Cc1c(I)cc(I)c(N)c1I)C(=O)O (stereo not drawn),97.2

# Sample 6
# Structure (SMILES): Cc1cc(C)c(-n2ccn3nc(-c4cccnc4)cc23)cc1NC(=O)c1cc(C#N)cc(S(F)(F)(F)(F)F)c1
# Method: competition with immobilised ligand
# Concentration: 0.1 µM
target,test,remaining binding [%]
"Tyrosine-protein kinase Tec (TEC, Homo sapiens, UniProt P42680)",binding,88.4
"SRSF protein kinase 2 (SRPK2, Homo sapiens, UniProt P78362)",cell-free assay,60.1
"Tyrosine-protein kinase Fes/Fps (FES, Homo sapiens, UniProt P07332)",cell-free assay,84.6
"Cyclin-dependent kinase 5 (CDK5, Homo sapiens, UniProt Q00535)",cell-free assay,95.6
"Serine/threonine-protein kinase B-raf (BRAF, Homo sapiens, UniProt P15056)",cell-free assay,89.4
"Phosphatidylinositol 4-phosphate 5-kinase type-1 gamma (PIP5K1C, Homo sapiens, UniProt O60331)",cell-free assay,70.2
"Mast/stem cell growth factor receptor Kit (KIT, Homo sapiens, UniProt P10721)",cell-free assay,44.5
"NUAK family SNF1-like kinase 2 (NUAK2, Homo sapiens, UniProt Q9H093)",cell-free assay,86.1
"Dual specificity mitogen-activated protein kinase kinase 6 (MAP2K6, Homo sapiens, UniProt P52564)",cell-free assay,100
"Macrophage-stimulating protein receptor (MST1R, Homo sapiens, UniProt Q04912)",cell-free assay,75.6
"Dual specificity mitogen-activated protein kinase kinase 5 (MAP2K5, Homo sapiens, UniProt Q13163)",cell-free assay,91.8
"Phosphatidylinositol 4,5-bisphosphate 3-kinase catalytic subunit alpha isoform (PIK3CA, Homo sapiens, UniProt P42336, H1047L)",cell-free assay,82.7
"Activin receptor type-1B (ACVR1B, Homo sapiens, UniProt P36896)",cell-free assay,100
"Glycogen synthase kinase-3 beta (GSK3B, Homo sapiens, UniProt P49841)",cell-free assay,85.9
"Receptor-type tyrosine-protein kinase FLT3 (FLT3, Homo sapiens, UniProt P36888, N841I)",cell-free assay,95.3
"Serine/threonine-protein kinase pim-2 (PIM2, Homo sapiens, UniProt Q9P1W9)",cell-free assay,100

# Other studies, line by line
SMILES,test system,conditions,endpoint,value
CC(C)n1cnc(-c2ccc(F)cc2)c1-c1ncc(C(=O)Nc2ccc(N3CCN(C)CC3)cc2)[nH]1,IPF patients,"60 mg once daily, adverse event",Gastritis incidence,0%
CCN1C(=O)C(C)(C)c2cc(S(=O)(=O)Nc3cnn(CC)c3)ccc21,"human, microsomes or S9","2 µM, 0.5 h",remaining compound,54.8%

# Some of these lines once more (other studies, line by line):
SMILES,test system,conditions,endpoint,value
CCN1C(=O)C(C)(C)c2cc(S(=O)(=O)Nc3cnn(CC)c3)ccc21,"human, microsomes or S9","2 µM, 0.5 h",remaining compound,54.8%
CC(C)n1cnc(-c2ccc(F)cc2)c1-c1ncc(C(=O)Nc2ccc(N3CCN(C)CC3)cc2)[nH]1,IPF patients,"60 mg once daily, adverse event",Gastritis incidence,0%
